Experimental data pooled from the literature.
Each line is one published result; not all experiments were run side by side. Numbers after ± are the reported error.

| SMILES | tested on | assay | system | setting | scale | measurement | result |
| --- | --- | --- | --- | --- | --- | --- | --- |
| N#Cc1ccc2c(c1)[C@H]1CCCN(C(=O)c3ccc4[nH]cnc4c3)[C@H]1C2 |  |  | human, female | 80 mg, day 7 |  | DHEA-S level | 8.6 µmol/L |
| CNC(=O)c1ccc(-c2cnc3ncc(Cc4ccc5ncccc5c4)n3n2)cc1F |  | refers to: Dizziness | cancer patients | oral, dose not given, dose escalation, grade 3-4 |  | patients with adverse event | 0% |
| O=C(Nc1nc2cccc(-c3ccc(CN4CCS(=O)(=O)CC4)cc3)n2n1)C1CC1 |  |  | rheumatoid arthritis patients | oral, 100 mg twice daily, 4 weeks, regardless of relatedness |  | patients with rheumatoid arthritis | 0% |
| COc1cc(Nc2ncc3c(n2)-c2ccc(Cl)cc2C(c2c(F)cccc2OC)=NC3)ccc1C(=O)O |  |  | cancer patients | oral, dose not given, all grades any attribution, added: pembrolizumab |  | patients with nasal congestion | 13% |
| COc1c(O)c(C)cc2c1C(=O)c1c(O)cccc1C2=O | HepaRG co-cultured with HK-2 | MTT |  | 133.33 µM, 48 h | baseline: untreated control | cell viability | 41.9 ± 3.72% |
| COc1ccnc(C(=O)NC(CO)C(=O)O)c1O (racemic) |  |  | sediment, Swiss lake sand | 20 °C, aerobic dark |  | DT50 | 1000 days |
| O=C(O)CCc1nc(-c2ccccc2)c(-c2ccccc2)o1 | COS-7 | WST-8 |  | 100 µM, 24 h, 0.1% DMSO, unit not given | baseline: control | metabolic activity | 0.85 ± 0.1 |
| COc1c(O[C@@H]2O[C@H](CO)[C@@H](O)[C@H](O)[C@H]2O)c(C)cc2c1C(=O)c1c(O)cccc1C2=O | HepaRG co-cultured with HK-2 | MTT |  | 33.33 µM, 48 h | baseline: untreated control | cell viability | 71.7 ± 7.66% |
| Cc1onc(-c2ccccc2)c1-c1ccc(S(N)(=O)=O)cc1 | COS-7 |  |  | 100 µM, 24 h, 0.1% DMSO, unit not given | baseline: control | necrosis | 1.01 ± 0.56 |
| C=CC(=O)Nc1cc(Nc2nccc(-c3cn(C)c4ccccc34)n2)c(OC)cc1N(C)CCN(C)C |  | storage stability | human dried blood spot | 2 h, -80 °C, MQC level |  | recovery | 87.3% |
| COc1ccc([C@@H](O)c2cc(-c3ncnc4cc(N5CCOCC5)ccc34)c(F)cc2Cl)nn1 |  |  | locally advanced rectal cancer | oral, 50 mg, added: capecitabine and radiotherapy |  | radiation skin injury TEAE | 100% |
| NC1(C(=O)N[C@@H](CCO)c2ccc(Cl)cc2)CCN(c2nc[nH]c3nccc2-3)CC1 |  |  | metastatic CRPC patients | dose not given, grade 3 to 4, treatment-related, all doses, added: enzalutamide 160 mg daily |  | incidence of Arthralgia | 0% |
| Cc1noc(C)c1Cn1cc(N2C(=O)CN(Cc3cccc(O)c3)C2=O)cn1 |  |  | pooled rat liver microsomes Sprague-Dawley | 1 µM, 120 min, pH 7.4 |  | remaining parent | 49 % peak area |
| O=C(O)CCc1ccc(O)cc1O |  |  | human plasma | mean |  | plasma concentration | 1520 nM |
| CN[C@H](CC(C)C)C(=O)N[C@H]1C(=O)N[C@@H](CC(N)=O)C(=O)N[C@H]2C(=O)N[C@H]3C(=O)N[C@H](C(=O)N[C@H](C(=O)O)c4cc(O)cc(O)c4-c4cc3ccc4O)[C@H](O)c3ccc(c(Cl)c3)Oc3cc2cc(c3O[C@@H]2O[C@H](CO)[C@@H](O)[C@H](O)[C@H]2O[C@H]2C[C@](C)(N)[C@H](O)[C@H](C)O2)Oc2ccc(cc2Cl)[C@H]1O |  | starch gel membrane permeability | Gram-negative envelope surrogate | 200 µM, 30 min, pH 7.4 |  | amount permeated | 0.5 nmol |
| CC(C)c1nc(N(C)S(C)(=O)=O)nc(-c2ccc(F)cc2)c1/C=C/[C@@H](O)C[C@@H](O)CC(=O)O |  |  | healthy human volunteers | oral, 10 mg, 6 days, monotherapy | baseline: subjects | severe TEAE incidence | 0% |
| N#Cc1cc(NC(=O)[C@H]2c3ccccc3C(=O)N(CC(F)(F)F)[C@@H]2c2cccnc2)ccc1F |  |  | humans, both sexes, all cohorts | oral, dose not given, grade 1, interim |  | number of unlikely related AEs | 75 |
| O=C(O)C=Cc1ccc(O)c(OS(=O)(=O)O)c1 |  |  | human plasma | mean |  | plasma concentration | 416 nM |
| CC(C)(C(=O)N1CCOc2c(C#N)cncc2C1)C(F)F |  | refers to: eye disorders | human | oral, 10 mg once daily, 14 days, multiple ascending dose |  | subjects with adverse event | 0% |
| O=C(N[C@H](Cc1c[nH]c2ccccc12)C(=O)Nc1ccncc1)c1ccc(N2CCN(c3ccc(F)cc3F)CC2)cc1F |  |  | Swiss Webster mouse, female, heart | oral, 50 mg/kg, 8 h, 20% HPβCD vehicle |  | concentration | 10200 nM |
| O=C(CCc1ccc(O)cc1)c1c(O)cc(O)cc1O |  |  | human plasma | mean, both sexes |  | plasma concentration | 5780 nM |
| CN(C)[C@@H]1C(O)=C(C(N)=O)C(=O)[C@@]2(O)C(O)=C3C(=O)c4c(O)cccc4[C@@](C)(O)[C@H]3C[C@@H]12 |  | starch gel membrane permeability | Gram-negative envelope surrogate | 200 µM, 20 min, pH 7.4 |  | amount permeated | 1.18 nmol |
| CC(C)c1nc(CN(C)C(=O)N[C@@H](CCN2CCOCC2)C(=O)N[C@H](CC[C@H](Cc2ccccc2)NC(=O)OCc2cncs2)Cc2ccccc2)cs1 |  | refers to: visual impairment | human | oral, 150 mg |  | drug-related TEAE incidence | 0% |
| CCOc1c([C@H](C)n2nc(C)c3c(N)ncnc32)cc(Cl)c(F)c1[C@@H]1CNC(=O)C1 |  |  | patients with B-cell malignancies, plasma | oral, 30 mg, day 15, monotherapy |  | Tmax | 1 h |

| SMILES | tested on | assay | system | setting | scale | measurement | result |
| --- | --- | --- | --- | --- | --- | --- | --- |
| O=C(COc1ccc(Cl)cc1)NC12CC(c3nnc([C@H]4C[C@@H](OC(F)(F)F)C4)o3)(C1)C2 |  |  | human both sexes | oral, 260 mg once daily, 14 days |  | postural dizziness participants | 42.9% |
| COC(=O)c1ccc2c(c1)NC(=O)/C2=C(\Nc1ccc(N(C)C(=O)CN2CCN(C)CC2)cc1)c1ccccc1 |  |  | healthy volunteers, plasma | oral, 150 mg, added: pirfenidone |  | AUClast | 185 ng·h/mL |
| Cc1cc(Nc2cc3ncccc3c(N[C@@H]3C[C@H]4CC[C@@H](C3)N4CCC#N)n2)n[nH]1 |  |  | healthy human subjects | oral, 300 mg, 2 weeks, single ascending dose |  | sneezing incidence | 0% |
| O=C(O)[C@H]1O[C@@H](Oc2c(-c3ccc(O)cc3)oc3cc(O)cc(O)c3c2=O)[C@H](O)[C@@H](O)[C@@H]1O |  |  | human plasma | median |  | plasma concentration | 1020 nM |
| CCN1/C(=C/C(C)=O)Sc2ccc(F)cc21 |  |  | cynomolgus monkey | oral, 10 mg/kg, 4 h post-dose | baseline: pre-dose | mean blood pressure change | 113 ± 12.5% |
| Cc1c2oc3c(C)ccc(C(=O)N[C@@H]4C(=O)N[C@H](C(C)C)C(=O)N5CCC[C@H]5C(=O)N(C)CC(=O)N(C)[C@@H](C(C)C)C(=O)O[C@@H]4C)c3nc-2c(C(=O)N[C@@H]2C(=O)N[C@H](C(C)C)C(=O)N3CCC[C@H]3C(=O)N(C)CC(=O)N(C)[C@@H](C(C)C)C(=O)O[C@@H]2C)c(N)c1=O |  | LC-MS | children with cancer, plasma | dose not given, 8 h |  | median plasma concentration | 2.8 µg/L |
| CC(C)NCCCC[C@@H]1NC(=O)[C@H](Cc2ccc(O)cc2)NC(=O)[C@H](Cc2ccccc2)NC(=O)CC[C@H](C(=O)N[C@@H](CCCCNC(C)C)C(=O)N[C@@H](CCCCNC(=O)[C@H](CCC(=O)O)NC(=O)[C@H](CCC(=O)O)NC(=O)[C@H](CCC(=O)O)NC(=O)CN2CCN(CC(=O)O)CCN(CC(=O)O)CCN(CC(=O)O)CC2)C(N)=O)NC(=O)CNC(=O)[C@H](Cc2ccc3ccccc3c2)NC(=O)[C@@H](CCCNC(=N)N)NC1=O [gallium-68 labelled] |  |  | mouse with PC-3 xenograft, liver | intravenous, 1 h |  | tissue uptake | 0.6 %ID/g |
| O=C1OC[C@H](Cc2cccc(O)c2)[C@H]1Cc1cccc(O)c1 |  |  | human plasma | mean, both sexes |  | plasma concentration | 608 nM |
| N#CCNC(=O)c1ccc(-c2ccnc(Nc3ccc(N4CCOCC4)cc3)n2)cc1 |  |  | healthy volunteers, plasma | oral, dose not given, added: ritonavir multiple-dose | baseline: with ritonavir over alone | AUCtau geometric mean ratio | 114% |
| Cc1ccc(Sc2ccccc2N2CCNCC2)c(C)c1 |  | refers to: metrorrhagia | healthy adult women | oral, 5 mg daily, 12 days |  | participants with TEAE | 0% |
| C[C@@H](Nc1cc(F)cc(F)c1)c1cc(C(=O)N(C)C)cc2c(=O)cc(N3CCOCC3)oc12 |  | refers to: Fatigue | advanced solid tumour patients | oral, dose not given, dose expansion |  | related serious adverse events | 0% |
| CC(F)(F)c1nc2nc(CO)cc(Nc3ccc(S(F)(F)(F)(F)F)cc3)n2n1 |  | LC-MS/MS | malaria patients, plasma | oral, 250 mg of parent drug |  | Cmax, metabolite | 442 ng/mL |
| CN1C(=O)[C@@H](NC(=O)c2nnc(Cc3ccccc3)[nH]2)COc2cccnc21 |  | phase I single ascending dose | human, male and female | oral, 800 mg, fasted |  | participants with any serious TEAE | 0% |
| C[C@@H](Oc1cc(-c2cnn(C3CCNCC3)c2)cnc1N)c1c(Cl)ccc(F)c1Cl |  |  | human patients, plasma | oral, dose not given, cycle 2 day 1, geometric mean, added: avelumab |  | AUCtau, dose-normalized | 11 ng·h/mL/mg |
| CCn1cc(C)c2c([C@H](N)c3ccc(C(F)(F)F)nc3)n(C)nc2c1=O |  |  | rat Sprague-Dawley male, plasma | intravenous, 1 mg/kg |  | CL | 11.8 ± 1.95 mL/min/kg |
| C[C@H]1[C@H](NC(=O)/C(=N\OC(C)(C)C(=O)O)c2csc(N)n2)C(=O)N1S(=O)(=O)O |  | starch gel membrane permeability | Gram-negative envelope surrogate | 200 µM, 45 min, pH 7.4 |  | amount permeated | 3.1 nmol |
| O=C(O)c1ccc(O)c(OS(=O)(=O)O)c1 |  |  | human plasma | mean |  | plasma concentration | 77.2 nM |
| [18F]c1ccc(-c2ccc3c(c2)[nH]c2ccncc23)cn1 |  | ex vivo biodistribution | APP/PS1 mouse, AD model, bladder | intravenous, 30 min |  | SUV | 1.8 ± 1.09 |
| O=C(O)CCC(=O)O.[2H]C([2H])([2H])Oc1cc(C)c2[nH]ccc2c1CN1CC[C@@H](C2CC2)C[C@H]1c1ccc(C(=O)O)cc1 |  |  | healthy Chinese subjects | 100 mg, single ascending dose |  | TEAE decreased white cells | 0% |
| CC[C@H]1OC(=O)[C@H](C)[C@@H](O[C@H]2C[C@@](C)(OC)[C@@H](O)[C@H](C)O2)[C@H](C)[C@@H](O[C@@H]2O[C@H](C)C[C@H](N(C)C)[C@H]2O)[C@](C)(O)C[C@@H](C)C(=O)[C@H](C)[C@@H](O)[C@]1(C)O |  | starch gel membrane permeability | Gram-negative envelope surrogate | 200 µM, 20 min, pH 7.4 |  | amount permeated | 0.16 nmol |
| NS(=O)(=O)c1cc(C(=O)O)c(NCc2ccco2)cc1Cl |  | refers to: oropharyngeal pain | healthy men | oral, 8 days, treatment-emergent, crossover trial |  | subjects with adverse event | 0% |
| CCO[C@H]1CCN(Cc2c(OC)cc(C)c3[nH]ccc23)[C@H](c2ccc(C(=O)O)cc2)C1 |  |  | human severe hepatic impairment, plasma | oral, 200 mg single dose, geometric mean |  | total half-life | 26.5 h |
| COc1cc(CC(=O)O)ccc1OS(=O)(=O)O |  |  | human plasma | mean |  | plasma concentration | 421 nM |
| COc1cc2c3c(n(CCCN4CCOCC4)c(=O)c2cc1OC)-c1cc2c(cc1C3=O)OCO2 |  |  | beagle dog, female, plasma | oral, 1720 mg/m^2, gelatin capsules | baseline: intravenous dosing | oral bioavailability | 5 to 40% |

A few entries again:
| SMILES | tested on | assay | system | setting | scale | measurement | result |
| --- | --- | --- | --- | --- | --- | --- | --- |
| CC[C@H]1OC(=O)[C@H](C)[C@@H](O[C@H]2C[C@@](C)(OC)[C@@H](O)[C@H](C)O2)[C@H](C)[C@@H](O[C@@H]2O[C@H](C)C[C@H](N(C)C)[C@H]2O)[C@](C)(O)C[C@@H](C)C(=O)[C@H](C)[C@@H](O)[C@]1(C)O |  | starch gel membrane permeability | Gram-negative envelope surrogate | 200 µM, 20 min, pH 7.4 |  | amount permeated | 0.16 nmol |
| CN(C)[C@@H]1C(O)=C(C(N)=O)C(=O)[C@@]2(O)C(O)=C3C(=O)c4c(O)cccc4[C@@](C)(O)[C@H]3C[C@@H]12 |  | starch gel membrane permeability | Gram-negative envelope surrogate | 200 µM, 20 min, pH 7.4 |  | amount permeated | 1.18 nmol |
| C[C@@H](Oc1cc(-c2cnn(C3CCNCC3)c2)cnc1N)c1c(Cl)ccc(F)c1Cl |  |  | human patients, plasma | oral, dose not given, cycle 2 day 1, geometric mean, added: avelumab |  | AUCtau, dose-normalized | 11 ng·h/mL/mg |
| C=CC(=O)Nc1cc(Nc2nccc(-c3cn(C)c4ccccc34)n2)c(OC)cc1N(C)CCN(C)C |  | storage stability | human dried blood spot | 2 h, -80 °C, MQC level |  | recovery | 87.3% |
| O=C(O)C=Cc1ccc(O)c(OS(=O)(=O)O)c1 |  |  | human plasma | mean |  | plasma concentration | 416 nM |
| O=C(CCc1ccc(O)cc1)c1c(O)cc(O)cc1O |  |  | human plasma | mean, both sexes |  | plasma concentration | 5780 nM |
| CCO[C@H]1CCN(Cc2c(OC)cc(C)c3[nH]ccc23)[C@H](c2ccc(C(=O)O)cc2)C1 |  |  | human severe hepatic impairment, plasma | oral, 200 mg single dose, geometric mean |  | total half-life | 26.5 h |
| CCOc1c([C@H](C)n2nc(C)c3c(N)ncnc32)cc(Cl)c(F)c1[C@@H]1CNC(=O)C1 |  |  | patients with B-cell malignancies, plasma | oral, 30 mg, day 15, monotherapy |  | Tmax | 1 h |
